Results collected from several papers.
A part holds a random share of what one study measured.

Set 1
Target: RNA binding protein fox-1 homolog 2, RRM domain, GST-SBP tag (RBFOX2, Homo sapiens, UniProt O43251-10, residues 100-194)
Technique: RNA Bind-n-Seq
Molecule type: RNA
Medium: in vitro
Concentration: 365 nM
Notes: natural RNA segment, single round, ends assumed
Relative to: no-protein control
Direction: higher = stronger binding
All sequences stand within: GGGAGUUCUACAGUCCGACGAUC … UGGAAUUCUCGGGUGCCAA
| Oligonucleotide | RBNS enrichment (R) |
| --- | --- |
| CAUGGGCUCUAGCAUCUACUCCGCUACCCAAUUCUGUCAUCUCCAAGCUGAGUUUCCUCUUCUGAGGCAGAGGCUGGAGCAGUUCUUUUUCAGUUCUCAUCCUCUCCAUC | 0.632 |
| UCUGUCUAUGAAUACCUUUUUGAACAAAGAAAAUUUUAUUGAUUUAAAAAGCUUUUAUAUGAGACAGACAAGUCCCUGAGUUCCAGGCCAGCCUUGGUGGCAAGUCACUA | 0.362 |
| AGGGCCACAUGGGAGGCUCACCCCCUUCUCCAUCCACAUGGGAGCCGGGUCUGCCUCUUCUGGGAGGGCAGCAGGGCUACCCUGAGCUGAGGCAGCAGUGUGAGGCCAGG | 0.379 |
| ACUUAGCUUUGUAUUUCAAAUGAAUUUGCAUAAAACCUGUUCAUCUUUAGCACCUUAUAGACAAAACUUUUUAUGGCUUUUCUCCCAUGGGCAAUGCUUGAUCUUAUACA | 0.491 |
| UUUAUACUAAAAAUGUAGAAUAAAGACUAUUUUGAAGAUUUGAAUAAAGUGAUGAAGUUGCAUUACACCUCACUGCAAGGAUUCUUUACUUAGCUUGUUUUUAGAUUUCU | 2.22 |
| AAGUAAUUUCAGAAGAAAUUCUGCAAGCUUUUCAAAAUUGGACUUAAAAUCUAAUUCAAACUAAUAGAAUUAAUGGAAUAUGUAAAUAGAAACGUGUAUAUUUUUUAUGA | 1.26 |
| GUGAUGGUGGGGAGAUGAUGGGCUAAACAGGCAACUUUUCAAAAACACAGCUAUCAUAGAAAAGAAACUUGCCUCAUGUAAACUGGAUUGAGAAAUUCUCAGUGAUUCUG | 0.474 |
| GCUCACACCAUGCUAUUUAAUUUUUAAAGUAACUUUUCAGAAAAUAUUACUGGCGUUUUGUUCAUUUUAAGACUGUUAACAUGAAGAAAAGUGUGCUAGAACUUUUUAAA | 0.529 |

Set 2
Target: RING finger protein unkempt homolog, zinc fingers 1-6, GST-SBP tag (UNK, Homo sapiens, UniProt Q9C0B0, residues 30-357)
Technique: RNA Bind-n-Seq
Molecule type: RNA
Medium: in vitro
Concentration: not given
Notes: RNA with constant flanks, ends assumed
Relative to: input RNA pool
Direction: higher = stronger binding
All sequences stand within: GGGAGUUCUACAGUCCGACGAUC … CAACAGAGGAUUGAGCAUCA
Construct (chain): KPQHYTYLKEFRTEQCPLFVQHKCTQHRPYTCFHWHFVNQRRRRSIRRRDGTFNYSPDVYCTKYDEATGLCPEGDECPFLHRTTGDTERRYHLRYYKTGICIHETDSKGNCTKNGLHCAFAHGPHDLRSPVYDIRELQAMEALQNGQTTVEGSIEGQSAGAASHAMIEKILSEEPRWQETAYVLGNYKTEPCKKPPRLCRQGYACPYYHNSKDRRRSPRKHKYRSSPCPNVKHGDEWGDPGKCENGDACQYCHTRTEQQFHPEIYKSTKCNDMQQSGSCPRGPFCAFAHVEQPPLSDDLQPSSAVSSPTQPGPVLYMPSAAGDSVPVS
| Oligonucleotide | bound/input enrichment |
| --- | --- |
| GCAUUGGCCCAAGCUGAACUUCUUAAGCGCCAGGAAGAACUAGAAAGAAAAGCCGCAGAAUCCGAUCGUCGGGAACGAGAAAUGCAAAACCUCAGUCAACAUGGUAGAAAAAAUAAUUGG | 0.856 ratio |
| GUAUUAAGUUCCUCUCCUGCUGAUAAAUUGGAUUCUCGAUUUAGGAAGGGAACUUUUGGUACCCGAGAUGCUGAAACAGAUGGACCUGAGAAAGGAGAUCAAAAAGGCAAGGCUUCUCCA | 0.213 ratio |
| GUAAGAUUCAUCUCCCGGUUAUGCCCUCCUGGAAAGCCCUUCCCAACAUAUUAUGUUGUCCACCGAGGGAAAAAUGAGCAAAGACAGAUGGCUUAACUCUGGUGUGUGACUAAGAUAUAG | 0.506 ratio |
| GCAUCACAGAGUGAACUGCCAUUAAGACAUCCAAGGUUUUAUCCAAAGCUGUUUGCUGGUAUCCGACAGAAGGCAGUGUCGAGCAGCCCUUCUGGAAAUGUUGCAUGGCCAGUGCUCUAG | 0.112 ratio |
| AGUCUUGUGAAUGAGACCACUUUGAUUAAAUACUCCAGGCUGCCAACCAUAAACAAGCACCGUUUCCGGUACUUUGUCUUGGAUAACAGUGUCAUCCUGGCAAUGCUGGAACAACCUCUU | 0.0987 ratio |
| UAUGCAGGUGCCUUGAGAGCUUCAGGGGAAAUGGCUUCAGCGCAGUAUAUUACUGCAGCCCUCCGAGAUUUGUUUGAUUCCAUGGAUAAAACUUCUUCCAGUAUUCCACCUAUUAUUCUA | 0.47 ratio |
| CGGUACCCAGACAUCCGCAUUGAAGGAGAGAAUUACCUCCCUCAACCAAUAUAUAGACACACCGCAUCUUUCCUGUCAGUCUUCAAACUAGUAUUAAUAGGCUUAAUAAUUGUUGGCAAG | 24.9 ratio |
| UUUAUUGCAGCAGUUGACCUAGAUGAGAUGUCGUUCACUUUUACUGAGCUACAGAAAAACACCGAAAUCAGUGUCCAUAAAUUCUUUAACUUACUAAAAGAAAUUGAUACCAGUACCAAA | 0.196 ratio |

Set 3
Target: Ras GTPase-activating protein-binding protein 1, RRM domain (G3BP1, Homo sapiens, UniProt Q13283)
Sequence of UniProt Q13283 (whole entry, looked up): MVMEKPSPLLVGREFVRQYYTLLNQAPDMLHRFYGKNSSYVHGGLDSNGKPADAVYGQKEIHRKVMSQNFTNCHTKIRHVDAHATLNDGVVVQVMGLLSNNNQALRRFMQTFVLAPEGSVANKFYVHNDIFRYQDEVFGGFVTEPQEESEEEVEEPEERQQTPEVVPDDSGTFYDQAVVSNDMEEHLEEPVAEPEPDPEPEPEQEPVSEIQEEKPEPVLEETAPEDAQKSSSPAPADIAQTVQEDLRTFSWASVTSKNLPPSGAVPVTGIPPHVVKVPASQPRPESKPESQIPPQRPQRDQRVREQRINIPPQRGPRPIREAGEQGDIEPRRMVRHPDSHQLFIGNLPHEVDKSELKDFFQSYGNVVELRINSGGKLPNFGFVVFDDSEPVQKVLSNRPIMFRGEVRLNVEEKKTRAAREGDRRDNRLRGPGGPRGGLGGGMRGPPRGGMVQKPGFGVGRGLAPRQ
Technique: RNA Bind-n-Seq
Molecule type: RNA
Medium: in vitro
Concentration: 1 µM
Notes: whole 134-nt RNA, ends assumed
Together with: 150 mM KCl
Relative to: input library
Direction: higher = stronger binding
All sequences stand within: GGGAGUUCUACAGUCCGACGAUC … UGGAAUUCUCGGGUGUCAAGG
| Oligonucleotide | log2 enrichment |
| --- | --- |
| CACAGACAACACGCACCCACACAGACACAGAGGGAAAGGGUUGGGAUGGGGACAGGGUGCACAGCAGGGCGGGGUAGGACCCCAGCCCCU | -0.132 |
| AAGUCCUGUGCUACACAUCGUAUGUACCGAAUCGGCCCCGGCCCCGGGCCCCGGGGAAAGUAUUAUGUUACGCCGUUCGGAUCUGCACUU | -1.05 |
| GUCCUGUGCUACACAUCGUAUGUACCGAAUCGGCCCCCCGGGGCCCCCCGGCCCCCCGGAAAGUAUUAUGUUACGCCGUUCGGAUCUGCA | -0.355 |
| GUCCUGUGCUACACAUCGUAUGUACCGAAUCGGGGAAAGGGGUUUUUGGGGAAAGGGGAAAGUAUUAUGUUACGCCGUUCGGAUCUGCAC | 1.39 |
| AGUCCUGUGCUACACAUCGUAUGUACCGAAUCGGGGUGGGGAAAAAAAGGGGUGGGGAAAGUAUUAUGUUACGCCGUUCGGAUCUGCACU | 0.732 |
| UCCUCAAGUCCUGUGCUACACAUCGUAUGUACCGAAUCGGCGGCGGGCGGGAAAGUAUUAUGUUACGCCGUUCGGAUCUGCACUUCCAGC | -0.202 |
| CAAGUCCUGUGCUACACAUCGUAUGUACCGAAUCGGGGCCCGGGGCCCGGCCCGGGAAAGUAUUAUGUUACGCCGUUCGGAUCUGCACUU | -0.981 |
| CCUGUGCUACACAUCGUAUGUACCGAAUCGGGAAAAAAAGGGAAAAAAAGGGAAAAAAAGGAAAGUAUUAUGUUACGCCGUUCGGAUCUG | 0.0577 |
| CUCAAGUCCUGUGCUACACAUCGUAUGUACCGAAUCGGGAAGGGAAGGGAAGGGAAAGUAUUAUGUUACGCCGUUCGGAUCUGCACUUCC | 1.18 |

Set 4
Target: Prothrombin, mature alpha-thrombin (F2, Homo sapiens, UniProt P00734)
Technique: aptamer microarray, sandwich
Molecule type: DNA with 2'F-ANA
Medium: in vitro
Concentration: 200 nM
Notes: whole 15-mer aptamer, many near background
Together with: Cy3 exosite-II aptamer, 400 nM
Direction: higher = stronger binding
Oligonucleotide: GGTTGGTGTGGTTGG
| Modification | mean fluorescence intensity |
| --- | --- |
| 2'F-ANA at 2 4 6 8 10 11 13 14 15 | 62.1 a.u. |
| 2'F-ANA at 3 6 9 15 | 888 a.u. |
| 2'F-ANA at 1 3 4 6 7 8 9 11 12 13 | 248 a.u. |
| 2'F-ANA at 4 5 6 8 12 15 | 143 a.u. |
| 2'F-ANA at 2 3 5 6 9 11 12 13 15 | 105 a.u. |
| 2'F-ANA at 3 4 6 7 11 14 | 315 a.u. |
| 2'F-ANA at 1 3 5 9 11 12 13 14 | 57.9 a.u. |
| 2'F-ANA at 1 3 5 9 10 11 13 15 | 46.6 a.u. |
| 2'F-ANA at 1 5 7 9 10 12 | 49.3 a.u. |
| 2'F-ANA at 3 4 5 6 7 8 12 13 14 15 | 59.2 a.u. |
| 2'F-ANA at 1 2 4 5 6 7 8 11 12 14 15 | 55.1 a.u. |
| 2'F-ANA at 3 5 6 7 8 10 11 14 | 51.2 a.u. |
| 2'F-ANA at 1 2 3 5 7 9 10 11 12 | 52.8 a.u. |
| 2'F-ANA at 2 6 9 14 | 121 a.u. |
| 2'F-ANA at 4 5 8 11 12 13 | 77.7 a.u. |
| 2'F-ANA at 2 4 7 8 9 10 12 | 138 a.u. |
| 2'F-ANA at 1 2 3 4 6 7 9 10 12 13 15 | 64.6 a.u. |

Repeated from above (set 2):
| Oligonucleotide | bound/input enrichment |
| --- | --- |
| GCAUUGGCCCAAGCUGAACUUCUUAAGCGCCAGGAAGAACUAGAAAGAAAAGCCGCAGAAUCCGAUCGUCGGGAACGAGAAAUGCAAAACCUCAGUCAACAUGGUAGAAAAAAUAAUUGG | 0.856 ratio |
| GUAUUAAGUUCCUCUCCUGCUGAUAAAUUGGAUUCUCGAUUUAGGAAGGGAACUUUUGGUACCCGAGAUGCUGAAACAGAUGGACCUGAGAAAGGAGAUCAAAAAGGCAAGGCUUCUCCA | 0.213 ratio |
| GUAAGAUUCAUCUCCCGGUUAUGCCCUCCUGGAAAGCCCUUCCCAACAUAUUAUGUUGUCCACCGAGGGAAAAAUGAGCAAAGACAGAUGGCUUAACUCUGGUGUGUGACUAAGAUAUAG | 0.506 ratio |
| GCAUCACAGAGUGAACUGCCAUUAAGACAUCCAAGGUUUUAUCCAAAGCUGUUUGCUGGUAUCCGACAGAAGGCAGUGUCGAGCAGCCCUUCUGGAAAUGUUGCAUGGCCAGUGCUCUAG | 0.112 ratio |
